Published values of several laboratories.
Every numbered part comes from another study and shows a few of its results, in no order.
Sequence of UniProt P50750 (whole entry, looked up): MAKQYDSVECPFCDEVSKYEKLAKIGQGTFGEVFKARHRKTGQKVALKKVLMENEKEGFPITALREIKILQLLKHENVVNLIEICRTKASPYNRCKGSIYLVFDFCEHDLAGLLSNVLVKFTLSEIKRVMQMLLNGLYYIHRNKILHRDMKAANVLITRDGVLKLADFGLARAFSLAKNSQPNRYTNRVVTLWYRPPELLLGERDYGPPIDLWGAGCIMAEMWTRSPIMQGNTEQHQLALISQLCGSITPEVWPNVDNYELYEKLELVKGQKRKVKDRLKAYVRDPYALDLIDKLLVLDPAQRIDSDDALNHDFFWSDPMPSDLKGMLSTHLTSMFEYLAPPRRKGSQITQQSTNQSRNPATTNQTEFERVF
Sequence of UniProt P10721 (whole entry, looked up): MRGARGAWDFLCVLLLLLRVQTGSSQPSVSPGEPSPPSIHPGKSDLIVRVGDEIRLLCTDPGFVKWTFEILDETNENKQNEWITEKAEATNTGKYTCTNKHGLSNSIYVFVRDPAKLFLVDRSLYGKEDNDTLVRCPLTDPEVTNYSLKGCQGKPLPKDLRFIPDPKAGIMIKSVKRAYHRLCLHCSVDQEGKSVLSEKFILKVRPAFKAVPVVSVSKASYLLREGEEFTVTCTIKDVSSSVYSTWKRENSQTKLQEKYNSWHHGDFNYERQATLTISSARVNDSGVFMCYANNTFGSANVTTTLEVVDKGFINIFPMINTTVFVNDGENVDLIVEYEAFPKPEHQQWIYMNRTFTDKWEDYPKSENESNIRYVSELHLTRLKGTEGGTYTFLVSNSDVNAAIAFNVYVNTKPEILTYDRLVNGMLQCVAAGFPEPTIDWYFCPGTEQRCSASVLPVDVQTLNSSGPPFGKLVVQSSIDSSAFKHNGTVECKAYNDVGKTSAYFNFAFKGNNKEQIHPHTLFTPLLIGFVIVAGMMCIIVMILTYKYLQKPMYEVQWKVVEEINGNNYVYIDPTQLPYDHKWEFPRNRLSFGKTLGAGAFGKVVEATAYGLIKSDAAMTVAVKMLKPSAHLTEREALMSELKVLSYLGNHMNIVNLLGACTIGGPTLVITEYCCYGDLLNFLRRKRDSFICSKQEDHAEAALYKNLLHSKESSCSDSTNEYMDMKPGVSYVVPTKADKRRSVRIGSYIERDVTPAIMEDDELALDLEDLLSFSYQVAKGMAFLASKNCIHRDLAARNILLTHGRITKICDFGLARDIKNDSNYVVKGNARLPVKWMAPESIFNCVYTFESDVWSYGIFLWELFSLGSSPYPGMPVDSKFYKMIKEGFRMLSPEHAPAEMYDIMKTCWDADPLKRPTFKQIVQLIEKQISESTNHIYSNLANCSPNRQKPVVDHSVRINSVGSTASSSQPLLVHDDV
Sequence of UniProt Q8WXR4 (whole entry, looked up): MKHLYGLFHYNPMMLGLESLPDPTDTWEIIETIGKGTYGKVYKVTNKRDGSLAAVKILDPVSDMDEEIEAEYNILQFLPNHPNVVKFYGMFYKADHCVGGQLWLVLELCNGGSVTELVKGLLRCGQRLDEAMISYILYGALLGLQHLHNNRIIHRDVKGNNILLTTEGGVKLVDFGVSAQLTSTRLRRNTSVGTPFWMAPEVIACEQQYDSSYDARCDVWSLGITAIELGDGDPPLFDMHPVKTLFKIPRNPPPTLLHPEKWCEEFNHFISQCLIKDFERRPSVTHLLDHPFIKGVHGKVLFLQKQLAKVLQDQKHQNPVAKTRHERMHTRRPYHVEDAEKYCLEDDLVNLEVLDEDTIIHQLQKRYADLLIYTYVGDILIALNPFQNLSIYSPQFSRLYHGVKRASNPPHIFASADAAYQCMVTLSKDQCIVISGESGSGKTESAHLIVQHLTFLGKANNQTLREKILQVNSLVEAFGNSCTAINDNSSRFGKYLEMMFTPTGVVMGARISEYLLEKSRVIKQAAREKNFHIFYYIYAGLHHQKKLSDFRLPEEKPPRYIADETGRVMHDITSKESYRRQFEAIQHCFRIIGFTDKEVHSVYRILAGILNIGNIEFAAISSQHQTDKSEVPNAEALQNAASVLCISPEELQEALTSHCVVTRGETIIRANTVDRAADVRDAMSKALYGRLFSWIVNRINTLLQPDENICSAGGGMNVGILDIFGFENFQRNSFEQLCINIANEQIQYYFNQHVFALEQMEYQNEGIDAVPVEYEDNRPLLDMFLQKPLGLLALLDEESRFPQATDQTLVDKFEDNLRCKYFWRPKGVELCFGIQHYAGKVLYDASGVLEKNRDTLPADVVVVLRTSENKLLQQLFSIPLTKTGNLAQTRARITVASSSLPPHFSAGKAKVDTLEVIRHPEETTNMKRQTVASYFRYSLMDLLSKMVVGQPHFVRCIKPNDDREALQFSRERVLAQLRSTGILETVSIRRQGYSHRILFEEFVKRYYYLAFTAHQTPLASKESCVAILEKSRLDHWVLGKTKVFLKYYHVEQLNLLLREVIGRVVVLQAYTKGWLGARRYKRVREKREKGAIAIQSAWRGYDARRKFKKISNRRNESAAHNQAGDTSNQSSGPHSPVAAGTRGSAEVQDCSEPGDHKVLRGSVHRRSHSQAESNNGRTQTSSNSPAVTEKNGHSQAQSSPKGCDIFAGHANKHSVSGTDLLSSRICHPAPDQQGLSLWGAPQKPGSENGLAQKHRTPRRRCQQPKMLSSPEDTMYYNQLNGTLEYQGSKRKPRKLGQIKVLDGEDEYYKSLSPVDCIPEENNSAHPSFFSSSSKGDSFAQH
Sequence of UniProt Q16566 (whole entry, looked up): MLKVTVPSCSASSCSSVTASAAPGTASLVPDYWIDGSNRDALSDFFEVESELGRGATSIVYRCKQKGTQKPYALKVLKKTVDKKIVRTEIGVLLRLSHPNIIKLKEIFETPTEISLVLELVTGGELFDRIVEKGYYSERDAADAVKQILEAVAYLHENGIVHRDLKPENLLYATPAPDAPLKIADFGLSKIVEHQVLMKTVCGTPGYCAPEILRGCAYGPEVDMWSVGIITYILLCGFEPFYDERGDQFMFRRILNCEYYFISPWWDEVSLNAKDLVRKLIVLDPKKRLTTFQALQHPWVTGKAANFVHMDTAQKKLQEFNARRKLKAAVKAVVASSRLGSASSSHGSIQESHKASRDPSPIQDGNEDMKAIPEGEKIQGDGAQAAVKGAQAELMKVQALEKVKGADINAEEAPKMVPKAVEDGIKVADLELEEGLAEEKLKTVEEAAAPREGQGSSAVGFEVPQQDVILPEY
Sequence of UniProt P35968 (whole entry, looked up): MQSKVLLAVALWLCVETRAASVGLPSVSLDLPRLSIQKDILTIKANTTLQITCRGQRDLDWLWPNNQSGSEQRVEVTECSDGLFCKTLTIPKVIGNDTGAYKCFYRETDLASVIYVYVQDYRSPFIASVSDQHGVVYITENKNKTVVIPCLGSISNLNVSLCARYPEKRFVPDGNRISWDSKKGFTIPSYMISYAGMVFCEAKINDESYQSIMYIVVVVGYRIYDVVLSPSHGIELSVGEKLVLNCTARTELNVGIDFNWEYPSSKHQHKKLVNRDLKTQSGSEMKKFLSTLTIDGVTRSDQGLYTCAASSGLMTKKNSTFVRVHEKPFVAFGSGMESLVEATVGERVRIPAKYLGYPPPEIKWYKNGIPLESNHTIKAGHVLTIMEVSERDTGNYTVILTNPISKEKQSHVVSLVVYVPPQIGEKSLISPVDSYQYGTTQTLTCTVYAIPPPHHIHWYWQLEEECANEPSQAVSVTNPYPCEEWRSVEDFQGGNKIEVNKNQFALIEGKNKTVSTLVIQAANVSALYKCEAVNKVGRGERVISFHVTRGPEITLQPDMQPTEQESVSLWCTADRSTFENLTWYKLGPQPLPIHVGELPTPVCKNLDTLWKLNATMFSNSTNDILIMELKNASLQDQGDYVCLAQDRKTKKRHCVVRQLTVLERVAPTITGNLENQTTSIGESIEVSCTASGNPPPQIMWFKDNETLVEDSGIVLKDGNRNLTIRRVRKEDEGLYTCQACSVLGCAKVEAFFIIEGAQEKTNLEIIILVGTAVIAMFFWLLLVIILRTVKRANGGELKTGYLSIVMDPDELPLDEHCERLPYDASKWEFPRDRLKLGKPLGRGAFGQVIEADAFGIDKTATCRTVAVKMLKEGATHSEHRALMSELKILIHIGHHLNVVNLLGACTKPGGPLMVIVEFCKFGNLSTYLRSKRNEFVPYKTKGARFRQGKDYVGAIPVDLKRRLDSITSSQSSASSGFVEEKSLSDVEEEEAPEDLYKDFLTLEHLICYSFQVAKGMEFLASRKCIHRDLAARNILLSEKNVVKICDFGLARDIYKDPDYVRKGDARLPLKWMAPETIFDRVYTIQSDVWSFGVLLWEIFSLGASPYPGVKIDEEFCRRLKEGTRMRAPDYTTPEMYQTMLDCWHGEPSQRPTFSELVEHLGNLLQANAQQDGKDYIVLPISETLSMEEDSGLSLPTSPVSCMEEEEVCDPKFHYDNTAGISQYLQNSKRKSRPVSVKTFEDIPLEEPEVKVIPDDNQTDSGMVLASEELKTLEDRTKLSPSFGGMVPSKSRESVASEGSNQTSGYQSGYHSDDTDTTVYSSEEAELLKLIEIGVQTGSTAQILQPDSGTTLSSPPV
Sequence of UniProt P06493 (whole entry, looked up): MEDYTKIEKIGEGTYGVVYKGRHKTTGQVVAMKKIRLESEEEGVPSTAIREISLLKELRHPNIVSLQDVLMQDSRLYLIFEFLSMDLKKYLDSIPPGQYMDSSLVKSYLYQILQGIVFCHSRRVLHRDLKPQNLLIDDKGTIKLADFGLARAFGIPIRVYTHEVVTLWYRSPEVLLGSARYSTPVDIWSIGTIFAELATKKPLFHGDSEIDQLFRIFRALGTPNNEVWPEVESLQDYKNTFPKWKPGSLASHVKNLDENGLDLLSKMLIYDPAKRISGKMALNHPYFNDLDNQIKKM

Sample 1
Structure (SMILES): CC(C)(C)n1nc(Cc2cccc3ccccc23)c2c(N)ncnc21
Read-out: enzyme activity
Mode: inhibitor
Tested at: 0.5 µM
Reference: control
The remaining activity was 96.5% (Calcium/calmodulin-dependent protein kinase type 1B (PNCK, Homo sapiens, UniProt Q6P2M8)).
Misshapen-like kinase 1 (MINK1, Homo sapiens, UniProt Q8N4C8) — remaining activity: 78.4%.
It gave 93% for remaining activity (Serine/threonine-protein kinase DCLK2 (DCLK2, Homo sapiens, UniProt Q8N568)).
The remaining activity was 88.2% (Myosin-IIIb (MYO3B, Homo sapiens, UniProt Q8WXR4)).
It gave 101% for remaining activity (Calcium/calmodulin-dependent protein kinase type IV (CAMK4, Homo sapiens, UniProt Q16566)).
It gave 96.2% for remaining activity (Dual specificity protein kinase CLK3 (CLK3, Homo sapiens, UniProt P49761)).
It gave 85.9% for remaining activity (Mitogen-activated protein kinase 1 (MAPK1, Homo sapiens, UniProt P28482)).
Cyclin-dependent kinase 1, with cyclin A (CDK1, Homo sapiens, UniProt P06493) — remaining activity: 94.8%.
Serine/threonine-protein kinase tousled-like 2 (TLK2, Homo sapiens, UniProt Q86UE8) — remaining activity: 94.3%.
It gave 81.4% for remaining activity (Cyclin-dependent kinase 9, with cyclin K (CDK9, Homo sapiens, UniProt P50750)).
Serine/threonine-protein kinase MARK2 (MARK2, Homo sapiens, UniProt Q7KZI7) — remaining activity: 91.4%.
Serine/threonine-protein kinase PAK 3 (PAK3, Homo sapiens, UniProt O75914) — remaining activity: 92.4%.
It gave 94.9% for remaining activity (Vascular endothelial growth factor receptor 2 (KDR, Homo sapiens, UniProt P35968)).
It gave 102% for remaining activity (RAC-beta serine/threonine-protein kinase (AKT2, Homo sapiens, UniProt P31751)).
It gave 106% for remaining activity (Ribosomal protein S6 kinase alpha-4 (RPS6KA4, Homo sapiens, UniProt O75676)).

Sample 2
Target: Bromodomain-containing protein 4, BD1 (BRD4, Homo sapiens, UniProt O60885)
Read-out: acetyl-histone H4 peptide binding
Technique: AlphaScreen displacement
Tested at: 50 µM
With `O=C(O)CCCC(=O)NNC(=O)c1ccc(Cl)cc1` the inhibition was -4.45%.
For `CC(Cl)C(=O)C(C#N)=C1Nc2ccccc2S1` (stereo not shown), the inhibition was 15.1%.
For `O=C(NNC(=O)c1c(O)c2ccccc2[nH]c1=O)c1ccccc1[N+](=O)[O-]`, the inhibition was 18.2%.
`Cc1nc(N)sc1-c1csc(Nc2ccc(N)cc2)n1` gave an inhibition of 93.3%.
The inhibition of `OC1CCCN(Cc2c(-c3ccc(F)cc3)[nH]c3ncccc23)C1` (stereo not shown) is reported as 8.4%.
For `O=C(Nc1cc(Cl)cc2c1[nH]c1cnccc12)c1cccnc1`, the inhibition was 22.1%.
`CCOC(=O)CCNc1ccc(Nc2ccc(C)cc2)c2c1C(=O)c1ccccc1C2=O` has an inhibition of 90.2%.
`COc1cccc(NC(=O)c2c(O)c3ccccc3[nH]c2=O)c1` has an inhibition of 36.7%.
`O=S(=O)(c1cccc2c(I)cccc12)N1CCCNCC1` gave an inhibition of 26.8%.

Sample 3
Structure (SMILES): O=C1CCc2cc(Nc3cc(OC4CCOCC4)c([N+](=O)[O-])cc3Cl)ccc2N1
Read-out: cell-free assay
Technique: competition with immobilised ligand
Tested at: 1 µM
Mast/stem cell growth factor receptor Kit (KIT, Homo sapiens, UniProt P10721) — remaining binding: 95%.
The remaining binding was 87% (Non-receptor tyrosine-protein kinase TNK1 (TNK1, Homo sapiens, UniProt Q13470)).
The remaining binding was 94% (Phosphatidylinositol 4,5-bisphosphate 3-kinase catalytic subunit delta isoform (PIK3CD, Homo sapiens, UniProt O00329)).
It gave 100% for remaining binding (Homeodomain-interacting protein kinase 2 (HIPK2, Homo sapiens, UniProt Q9H2X6)).
It gave 100% for remaining binding (Tyrosine-protein kinase ABL1, phosphorylated (ABL1, Homo sapiens, UniProt P00519, Q252H)).
Dual specificity protein kinase CLK1 (CLK1, Homo sapiens, UniProt P49759) — remaining binding: 84%.
The remaining binding was 100% (SRSF protein kinase 2 (SRPK2, Homo sapiens, UniProt P78362)).
It gave 100% for remaining binding (Serine/threonine-protein kinase 3 (STK3, Homo sapiens, UniProt Q13188)).
It gave 81% for remaining binding (Fibroblast growth factor receptor 4 (FGFR4, Homo sapiens, UniProt P22455)).

Single results of other studies
`CC(C)n1cnc(-c2ccc(F)cc2)c1-c1ncc(C(=O)Nc2ccc(N3CCN(C)CC3)cc2)[nH]1`: “serious treatment-related AEs” 25% (human, idiopathic pulmonary fibrosis; 30 mg twice daily, trial, with standard of care).

A few entries again (sample 1):
Serine/threonine-protein kinase PAK 3 (PAK3, Homo sapiens, UniProt O75914) — remaining activity: 92.4%.
Serine/threonine-protein kinase tousled-like 2 (TLK2, Homo sapiens, UniProt Q86UE8) — remaining activity: 94.3%.
